Measured values from different studies.
A part holds a random share of what one study measured.

Series 1
Target: RNA binding protein fox-1 homolog 2, RRM domain, GST-SBP tag (RBFOX2, Homo sapiens, UniProt O43251-10, residues 100-194)
Technique: RNA Bind-n-Seq
Form: RNA
Sample: in vitro
Tested at: 365 nM
Notes: natural RNA segment, single round, ends assumed
Baseline: no-protein control
Reading: higher = stronger binding
Constant ends, left off below: GGGAGUUCUACAGUCCGACGAUC … UGGAAUUCUCGGGUGCCAA
Residues (chain): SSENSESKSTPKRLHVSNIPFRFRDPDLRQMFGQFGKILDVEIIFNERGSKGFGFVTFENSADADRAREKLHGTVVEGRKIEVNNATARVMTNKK
Sequence | RBNS enrichment (R)
GCAUCGGAGUCUCGCUAGUUUCUCAUGGUUGGGUCACAGCAUCCUUGUCGCUGUAUUAAGUGCAGUUUUCUUGGAGCCAUAACAACUGUUAAUGCUUAGGAAGCCCAUUU | 0.499
UUUUUAUAUUUUUAGAGACAGGGAUUCAACAUGUUGGUUAGGCUGGUCUUGAACUCCUCACCUCAGGUGAUCCACAUGACUCUGCCUCCCAAAGUGCUGCCAUUACAGGC | 0.425
GUUGACUUACUUAUAGCUAGAUGUCUAUGUGAGAAAGUAUAAUAUAUAUAUAUACACAUAUAUAUGACAUGUAAGAGUCACUUUUAUUUAUCUGUCUUUGUUCACUUAUG | 0.759
CUCUAAAGAAACAUUUUGAGCAAGGCAGUUUAGAGAAUCCUAAUGUCUACACUGGCAUAGCACGAGCCAUGUAAGCUUCUUUUUUUUCUAUGCAAGAGUAUUGAUGUAUG | 11.9
GCAUCAAGAACUCUUAGCACCAUCCUACUGCUGUCGCCACCACCCUGUCCGUCAGAGACUUCUCAAUCCAGUGGCAGUUGGGAUGGGGUUAUGAGGCCUGUCAGGUCUAU | 1.6
AGUCUGUCCCUAUUUAUGUAUGGUGGUUGAGGGCUGUGUGGCCAGGACCAAGAGCAAGGCCCAGCUUCUGCUGGCCAAUCGUGUUCCUUCAGAUCACCCACAAUAAAGCG | 0.267
GUGCUUACUAACAAAAUGUGAAAAGCAAGACCCAGGUGUCUCAUGUGGUGGCAGCACAGUGGCAGGCCAGUGGUCAACUUAGGGCAUCUUUUCUCUGCCACGGCAGCGCA | 1.19
GGAUAACUAACUCCUAGGGAUAACCAUUUCUAUCCUGUUCCAAAGUCUUAUUUUAUAGUUUGAAAAGCACUUUGCACACAGUUCUUGUAUAUAAAAGUAAAGAUGUAAUU | 4.83
GUGUGAAUUUUCUUUAAAAAACUUAAGGAGUCUUUGCUACCUUCUGCUUGUUGAGUUGUUUUGGCAUUCAUAUUAAAAGCCAGCAUCUCACUAUUUAUUGACAGGUUGGG | 0.835
CCAACAAGAGAUCUCGAACCCUGUCUAGAAGGAAUGUAUUUGUUGCUAAAUUUCGUAGCACUGUUUACAGUUUUCCUCCAUGUUAUUUAUGAAUUUUAUAUUCCGUGAAU | 0.43
GUUCCCCCGCCGCUUUUCUCCUCUUUCCUCUCUUUGUUCUCAGCUCCCCCUGUCCCCUCAGCUCCAGACGUAGGGGAGGGGUUGCCACAGGCCUCCCUGUUUGAAGCCUG | 1.19
AUGGGAGGCCAGCAGGACCCUGCCCCAUGUGUCAGCUACCACAGAUUAAAGCUGUUACCGCACACGGGCCGGCUUCUUUCUCCACAGGGUGGUGGGGUGGGUGGCUAUGG | 0.722

Series 2
Target: Sal-like protein 4, full length isoform B (SALL4, Homo sapiens, UniProt Q9UJQ4-2, residues 1-616)
Technique: universal PBM
Form: double-stranded DNA, one strand shown
Sample: in vitro
Tested at: not given
Notes: 8-mer, flanks averaged, mean of replicates
Reading: higher = stronger binding
Construct (chain): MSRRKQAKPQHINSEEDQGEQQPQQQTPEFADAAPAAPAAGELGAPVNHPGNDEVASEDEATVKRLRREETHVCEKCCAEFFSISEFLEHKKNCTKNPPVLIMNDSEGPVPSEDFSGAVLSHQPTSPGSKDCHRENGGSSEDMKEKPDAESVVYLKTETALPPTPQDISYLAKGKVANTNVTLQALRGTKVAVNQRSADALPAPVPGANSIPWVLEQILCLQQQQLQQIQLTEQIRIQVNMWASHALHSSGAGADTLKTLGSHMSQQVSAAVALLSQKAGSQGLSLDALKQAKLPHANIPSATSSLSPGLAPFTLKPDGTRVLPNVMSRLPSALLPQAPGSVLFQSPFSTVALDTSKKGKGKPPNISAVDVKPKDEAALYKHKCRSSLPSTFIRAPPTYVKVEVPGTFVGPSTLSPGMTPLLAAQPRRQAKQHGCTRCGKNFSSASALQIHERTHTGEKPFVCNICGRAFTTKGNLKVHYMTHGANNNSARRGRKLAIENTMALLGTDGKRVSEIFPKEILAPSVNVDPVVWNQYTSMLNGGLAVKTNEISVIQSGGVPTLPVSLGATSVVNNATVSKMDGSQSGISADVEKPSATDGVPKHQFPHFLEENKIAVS
Sequence | E-score
CCGAGGCA | -0.142
CCAAGAAA | 0.0968
ACCCTAAG | -0.176
TGAACTCA | 0.00397
CACGGAGG | -0.226
TACCAACA | 0.149
ATAATCGA | 0.251
CCTGTGAC | -0.19
AAAACGTA | 0.161
AACACATA | 0.321
AGCGACCA | -0.0903
TCCCGTAA | 0.0616
ATCGAGAC | -0.0531
GAAAATGC | 0.0882
ACCTTTTC | 0.0829
ATGGAGTG | -0.0471
GTTGAACA | 0.103
GGAGGGTA | -0.126
AGGAAAGC | -0.0706

Series 3
Target: Histone acetyltransferase KAT6A, both winged helices, GST fusion (KAT6A, Homo sapiens, UniProt Q92794, residues 1-181)
Technique: protein binding microarray
Form: double-stranded DNA, one strand shown
Sample: in vitro
Tested at: not given
Notes: 8-mer, flanks averaged, mean of 2 arrays, mostly near background
Baseline: not given
Reading: higher = stronger binding
Residues (chain): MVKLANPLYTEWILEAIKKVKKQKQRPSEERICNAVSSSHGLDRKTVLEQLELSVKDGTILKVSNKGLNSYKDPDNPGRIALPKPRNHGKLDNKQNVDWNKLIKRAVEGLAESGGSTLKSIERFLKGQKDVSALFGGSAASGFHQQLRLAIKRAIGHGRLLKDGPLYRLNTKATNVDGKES
Sequence | E-score
GAATGTGA | -0.0789
ATTTTTGC | -0.07
AAGATATT | -0.237
AGACCTAA | -0.138
AAGTAAGC | -0.0272
GGATGTCA | 0.00904
ATGAATTC | 0.0377
ATTTCGGC | 0.122
CGCAGGCC | 0.162
CCGATGAA | 0.0853
CGAACGCA | 0.123
CCTAAAAC | -0.00725
AACGGGAT | 0.159
AAATAGCA | -0.189
ACCGTCGG | 0.36
CCAGACAC | -0.242
ATCTGCAT | -0.144
GGCTCGGA | 0.119
AAGCGTTA | -0.00413

Series 4
Target: Interferon regulatory factor 5, full length, phosphomimetic (IRF5, Homo sapiens, UniProt Q13568-2, residues 1-514, K96S/S451D/S453D/S456D/S462D)
Technique: protein-binding microarray
Form: double-stranded DNA, one strand shown
Sample: in vitro
Tested at: 250 nM
Notes: 60-bp whole probe
With: salmon DNA 0.4 mg/ml
Baseline: random background probes
Reading: higher = stronger binding
Constant ends, left off below: GCCTAGCAC … GTCTTGATTCGCTTGACGCTGCTG
Sequence | log fluorescence [z-score]
ATGAAAATCTCAATGGGTTAGTGCTAG | 0.413
TTAGATCTCAGTATCGGTTAGTGCTAG | 7.35
GTCGGACTGGGTTTCGGGACGTGCTAG | 2.43
TTAGCTTTCCTTCTCCTTTAGTGCTAG | 1.43
TTAGGACTGTGTTTCGGTTAGTGCTAG | 8.07
CTAGGTATCCTTCTCCTTTAGTGCTAG | -0.0105
GACGGTATCGGTATCGGGAGGTGCTAG | 6.25
GACGGTCTCGGTTACGGGACGTGCTAG | 0.186
TTAGGTTTCCTACTGCGTTAGTGCTAG | 0.413
TTAGGTTTCGGGTTCGGTTAGTGCTAG | 8.21
TTAAAAAAAAAAAACTGTAACGTGCTA | 0.692
TTAGGTGTCGGGTTTCGGTTAGTGCTA | 7.24
GTCTCTATCAAAAATACAAAAGTGCTA | 1.18
TCAGTTTGCCTCCTTCAGACTGTGCTA | 0.0549
TTAGGAGTGGGACTGGGTTAGTGCTAG | -0.468
TTAGGTTTCGACTATCGGTTCGTGCTA | 9.15
CATCATTGCCTGTTTTTCCCCGTGCTA | 0.556
GACCATATCGGGTTTCGAGACGTGCTA | 2.86
TCAGGTCTCGGTATCGGTTAGTGCTAG | 5.11

Series 5
Target: Hepatocyte nuclear factor 3-alpha (Foxa1, Mus musculus, UniProt P35582, residues 1-468, full length assumed)
Technique: EMSA with sequencing
Form: double-stranded DNA, one strand shown
Sample: in vitro
Tested at: 10 and 20 nM
Notes: whole designed probe, mean of two concentrations, ends assumed
Baseline: negative control set to 0
Reading: higher = stronger binding
Residues (chain): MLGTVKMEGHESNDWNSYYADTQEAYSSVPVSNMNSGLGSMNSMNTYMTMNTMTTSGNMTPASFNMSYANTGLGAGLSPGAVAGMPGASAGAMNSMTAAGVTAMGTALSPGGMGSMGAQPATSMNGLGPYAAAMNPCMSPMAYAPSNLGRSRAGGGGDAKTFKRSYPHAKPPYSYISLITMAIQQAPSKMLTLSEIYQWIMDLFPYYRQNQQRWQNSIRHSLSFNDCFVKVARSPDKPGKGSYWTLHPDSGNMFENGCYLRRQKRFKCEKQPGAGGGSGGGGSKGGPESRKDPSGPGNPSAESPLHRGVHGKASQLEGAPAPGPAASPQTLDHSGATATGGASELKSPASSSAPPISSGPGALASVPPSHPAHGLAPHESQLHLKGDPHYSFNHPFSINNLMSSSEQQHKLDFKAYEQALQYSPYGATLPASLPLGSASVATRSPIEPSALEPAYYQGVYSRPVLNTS
Sequence | normalised bound fraction [ratio]
GTGAGCGGTGCCCATTGATGGGGAACGCTTAAACCAATAAAACATTTATCTCACAGTTTCTGTGGGTCAGGAATCCAGGAGTGGCTTTGCTGGGTGGTTCTGCCTCAGGGTATCTGCCCAGATTACAGTCATGCTGTTGGCTGGGCTGCAGAGGCTGGAAGCCTCTTTGGGGCCAGATGATTTGTTTCTGAGCTTGTTCATGTGGTTGTGGTCAGAAGGTTTCACTGGGATCGTGGGGAC | 0.121
GTGAGCGGTGCCCATTGATGGGGAACAAACTAAAGAGTATATTTTTAATGTGAAAGGTTATTTAATTTTGCCATATTAAAACAAATGAGGACCAGTGGTTTTATAATATCAATATATTTGTTTACATTGTAAGGGGTTATTTATAATAAAAGCAATTTTATATTACATGTTACTGTGTGTTTCTGTTTTCAGAAAAAAAATGAAAACTAAAAGAAAAAATTTCACTGGGATCGTGGGGAC | 0.587
GTGAGCGGTGCCCATTGATGGGGAACATCTTCCCCCTCTTCCTTGCCCCACCAGCTCACCTACGGGGGTTATTTGCAGATAGGAAAATAAATAAAGCCGGCATTCGTTAACCCTCTTCACGCGCATACTGCTGTTTGCTCTGGATGAATCATGGTCCTTTGGCGAGGCGTGGCTCCGGGAGAGCAAAGCACCGTGTCAGGGCCATGATCCGGGGTGGCCTTTCACTGGGATCGTGGGGAC | 0.343
GTGAGCGGTGCCCATTGATGGGGAACCCTCTGACTCACCCTTCCTAGTGCCACCCAAGTTTCATCTGCACCATTGCTTACACATAATACAAGTACTTAAATTACTTACGCATTTGTTAAAGATTGCTCAGCTGTCTTGGTGCCTTTGTGTCTTTCACTGTGCTTTTAATTAGCTCGGCTGATTCTAAGAGTGGAGGTAAGCCAAGGTTTGAACCAGGTGTTTCACTGGGATCGTGGGGAC | -0.0309

For quick reference, copied from above (series 1):
Sequence | RBNS enrichment (R)
CCAACAAGAGAUCUCGAACCCUGUCUAGAAGGAAUGUAUUUGUUGCUAAAUUUCGUAGCACUGUUUACAGUUUUCCUCCAUGUUAUUUAUGAAUUUUAUAUUCCGUGAAU | 0.43
GCAUCGGAGUCUCGCUAGUUUCUCAUGGUUGGGUCACAGCAUCCUUGUCGCUGUAUUAAGUGCAGUUUUCUUGGAGCCAUAACAACUGUUAAUGCUUAGGAAGCCCAUUU | 0.499
GGAUAACUAACUCCUAGGGAUAACCAUUUCUAUCCUGUUCCAAAGUCUUAUUUUAUAGUUUGAAAAGCACUUUGCACACAGUUCUUGUAUAUAAAAGUAAAGAUGUAAUU | 4.83
AUGGGAGGCCAGCAGGACCCUGCCCCAUGUGUCAGCUACCACAGAUUAAAGCUGUUACCGCACACGGGCCGGCUUCUUUCUCCACAGGGUGGUGGGGUGGGUGGCUAUGG | 0.722
GUUCCCCCGCCGCUUUUCUCCUCUUUCCUCUCUUUGUUCUCAGCUCCCCCUGUCCCCUCAGCUCCAGACGUAGGGGAGGGGUUGCCACAGGCCUCCCUGUUUGAAGCCUG | 1.19
AGUCUGUCCCUAUUUAUGUAUGGUGGUUGAGGGCUGUGUGGCCAGGACCAAGAGCAAGGCCCAGCUUCUGCUGGCCAAUCGUGUUCCUUCAGAUCACCCACAAUAAAGCG | 0.267
GUGCUUACUAACAAAAUGUGAAAAGCAAGACCCAGGUGUCUCAUGUGGUGGCAGCACAGUGGCAGGCCAGUGGUCAACUUAGGGCAUCUUUUCUCUGCCACGGCAGCGCA | 1.19
GUUGACUUACUUAUAGCUAGAUGUCUAUGUGAGAAAGUAUAAUAUAUAUAUAUACACAUAUAUAUGACAUGUAAGAGUCACUUUUAUUUAUCUGUCUUUGUUCACUUAUG | 0.759
